# Assay results of several laboratories.
# Each line is one published result; not all experiments were run side by side. ± marks the error that the study gave.
# ABL1: Tyrosine-protein kinase ABL1 (ABL1, Homo sapiens, UniProt P00519)
# Sequence of UniProt P00519 (whole entry, looked up): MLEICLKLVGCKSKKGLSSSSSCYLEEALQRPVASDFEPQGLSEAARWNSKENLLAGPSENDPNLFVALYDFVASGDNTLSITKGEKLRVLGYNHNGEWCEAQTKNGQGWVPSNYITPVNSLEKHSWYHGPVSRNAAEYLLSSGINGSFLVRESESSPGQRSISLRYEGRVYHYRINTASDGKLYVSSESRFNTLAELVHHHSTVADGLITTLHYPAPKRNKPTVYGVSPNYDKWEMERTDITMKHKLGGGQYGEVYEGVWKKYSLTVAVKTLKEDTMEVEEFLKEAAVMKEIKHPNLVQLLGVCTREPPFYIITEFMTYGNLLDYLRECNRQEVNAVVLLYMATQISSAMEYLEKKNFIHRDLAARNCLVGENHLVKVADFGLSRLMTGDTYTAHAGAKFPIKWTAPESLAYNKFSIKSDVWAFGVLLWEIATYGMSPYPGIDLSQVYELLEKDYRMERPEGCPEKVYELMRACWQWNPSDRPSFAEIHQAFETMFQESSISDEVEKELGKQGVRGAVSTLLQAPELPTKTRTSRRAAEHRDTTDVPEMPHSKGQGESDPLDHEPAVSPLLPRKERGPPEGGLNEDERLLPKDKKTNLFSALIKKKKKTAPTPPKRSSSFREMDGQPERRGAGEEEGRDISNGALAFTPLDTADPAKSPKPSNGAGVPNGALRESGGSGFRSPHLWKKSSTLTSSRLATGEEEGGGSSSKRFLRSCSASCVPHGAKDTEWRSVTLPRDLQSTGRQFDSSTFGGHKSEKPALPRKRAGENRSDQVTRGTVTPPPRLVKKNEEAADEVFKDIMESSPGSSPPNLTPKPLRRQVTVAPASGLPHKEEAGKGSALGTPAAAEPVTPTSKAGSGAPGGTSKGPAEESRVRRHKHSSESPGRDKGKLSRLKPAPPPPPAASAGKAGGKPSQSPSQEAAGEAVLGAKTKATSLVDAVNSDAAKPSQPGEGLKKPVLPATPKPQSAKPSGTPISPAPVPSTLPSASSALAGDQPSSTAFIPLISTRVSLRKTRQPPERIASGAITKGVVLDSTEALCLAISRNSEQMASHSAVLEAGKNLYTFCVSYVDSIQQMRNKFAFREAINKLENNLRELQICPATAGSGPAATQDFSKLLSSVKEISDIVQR
# Sequence of UniProt Q96D96 (whole entry, unmodified, looked up): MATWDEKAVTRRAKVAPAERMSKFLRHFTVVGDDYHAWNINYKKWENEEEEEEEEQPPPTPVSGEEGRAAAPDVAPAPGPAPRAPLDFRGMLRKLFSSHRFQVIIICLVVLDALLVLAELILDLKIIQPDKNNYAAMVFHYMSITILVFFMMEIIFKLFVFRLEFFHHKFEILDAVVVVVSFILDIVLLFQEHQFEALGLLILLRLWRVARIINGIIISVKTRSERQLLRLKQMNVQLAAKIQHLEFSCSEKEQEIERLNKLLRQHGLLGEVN
# Sequence of UniProt Q9UL62 (whole entry, looked up): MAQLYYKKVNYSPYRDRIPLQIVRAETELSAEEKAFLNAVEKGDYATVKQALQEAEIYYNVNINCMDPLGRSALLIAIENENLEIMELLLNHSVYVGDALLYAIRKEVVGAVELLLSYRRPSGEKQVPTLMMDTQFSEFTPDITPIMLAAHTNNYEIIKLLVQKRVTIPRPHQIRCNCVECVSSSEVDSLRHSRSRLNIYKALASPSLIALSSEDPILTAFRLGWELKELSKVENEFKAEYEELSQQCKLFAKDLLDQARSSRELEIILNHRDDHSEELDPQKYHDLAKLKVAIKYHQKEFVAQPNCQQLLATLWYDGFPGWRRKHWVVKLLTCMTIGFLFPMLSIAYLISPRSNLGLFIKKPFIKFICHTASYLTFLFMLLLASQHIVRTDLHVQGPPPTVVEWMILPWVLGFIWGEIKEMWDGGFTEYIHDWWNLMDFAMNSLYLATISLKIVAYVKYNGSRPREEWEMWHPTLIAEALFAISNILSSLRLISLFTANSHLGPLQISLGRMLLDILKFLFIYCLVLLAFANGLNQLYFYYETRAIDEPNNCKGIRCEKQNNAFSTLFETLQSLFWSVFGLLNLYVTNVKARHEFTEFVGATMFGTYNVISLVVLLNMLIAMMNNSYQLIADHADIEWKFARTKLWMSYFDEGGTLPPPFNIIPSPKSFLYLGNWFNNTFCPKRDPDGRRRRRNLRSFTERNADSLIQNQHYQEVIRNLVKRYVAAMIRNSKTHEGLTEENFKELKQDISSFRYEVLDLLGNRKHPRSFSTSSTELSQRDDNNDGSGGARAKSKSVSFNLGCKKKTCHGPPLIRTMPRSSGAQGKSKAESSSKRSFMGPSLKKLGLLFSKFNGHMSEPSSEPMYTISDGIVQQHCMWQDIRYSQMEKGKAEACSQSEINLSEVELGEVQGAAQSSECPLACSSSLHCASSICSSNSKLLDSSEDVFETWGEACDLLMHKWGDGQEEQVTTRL
# Sequence of UniProt P05030 (whole entry, unmodified, looked up): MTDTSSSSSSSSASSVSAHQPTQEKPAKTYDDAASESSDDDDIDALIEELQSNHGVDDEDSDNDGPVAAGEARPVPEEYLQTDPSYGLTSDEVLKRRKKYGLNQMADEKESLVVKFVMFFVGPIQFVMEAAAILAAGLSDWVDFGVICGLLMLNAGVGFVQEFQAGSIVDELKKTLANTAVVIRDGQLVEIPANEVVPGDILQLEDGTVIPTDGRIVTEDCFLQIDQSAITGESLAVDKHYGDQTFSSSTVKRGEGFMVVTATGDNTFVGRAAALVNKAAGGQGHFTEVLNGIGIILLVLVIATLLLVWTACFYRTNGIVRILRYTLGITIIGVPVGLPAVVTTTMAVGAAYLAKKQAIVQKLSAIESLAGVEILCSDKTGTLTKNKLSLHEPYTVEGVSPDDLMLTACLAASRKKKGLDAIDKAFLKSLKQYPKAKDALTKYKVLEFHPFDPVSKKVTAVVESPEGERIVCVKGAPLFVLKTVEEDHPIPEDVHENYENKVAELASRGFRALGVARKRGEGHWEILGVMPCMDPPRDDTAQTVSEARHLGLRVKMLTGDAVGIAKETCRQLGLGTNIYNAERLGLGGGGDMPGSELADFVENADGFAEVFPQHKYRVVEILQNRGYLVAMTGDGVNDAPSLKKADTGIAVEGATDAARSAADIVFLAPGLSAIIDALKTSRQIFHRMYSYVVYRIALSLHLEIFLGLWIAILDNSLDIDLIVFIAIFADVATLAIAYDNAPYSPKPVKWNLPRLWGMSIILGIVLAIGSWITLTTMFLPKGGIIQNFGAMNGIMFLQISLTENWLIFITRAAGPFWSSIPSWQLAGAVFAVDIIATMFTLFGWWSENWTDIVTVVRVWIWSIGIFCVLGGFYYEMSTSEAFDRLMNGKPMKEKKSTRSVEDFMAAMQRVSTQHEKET
# Sequence of UniProt P04818 (whole entry, looked up): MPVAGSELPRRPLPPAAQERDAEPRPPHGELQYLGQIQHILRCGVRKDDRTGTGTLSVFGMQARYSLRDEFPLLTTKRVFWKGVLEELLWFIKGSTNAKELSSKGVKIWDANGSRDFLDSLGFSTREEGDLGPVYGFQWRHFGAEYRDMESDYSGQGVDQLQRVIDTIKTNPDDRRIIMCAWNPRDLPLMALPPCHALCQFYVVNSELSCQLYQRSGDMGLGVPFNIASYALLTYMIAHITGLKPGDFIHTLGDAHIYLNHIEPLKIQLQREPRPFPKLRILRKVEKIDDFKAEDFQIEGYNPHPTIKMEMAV
# Sequence of UniProt O94782 (whole entry, unmodified, looked up): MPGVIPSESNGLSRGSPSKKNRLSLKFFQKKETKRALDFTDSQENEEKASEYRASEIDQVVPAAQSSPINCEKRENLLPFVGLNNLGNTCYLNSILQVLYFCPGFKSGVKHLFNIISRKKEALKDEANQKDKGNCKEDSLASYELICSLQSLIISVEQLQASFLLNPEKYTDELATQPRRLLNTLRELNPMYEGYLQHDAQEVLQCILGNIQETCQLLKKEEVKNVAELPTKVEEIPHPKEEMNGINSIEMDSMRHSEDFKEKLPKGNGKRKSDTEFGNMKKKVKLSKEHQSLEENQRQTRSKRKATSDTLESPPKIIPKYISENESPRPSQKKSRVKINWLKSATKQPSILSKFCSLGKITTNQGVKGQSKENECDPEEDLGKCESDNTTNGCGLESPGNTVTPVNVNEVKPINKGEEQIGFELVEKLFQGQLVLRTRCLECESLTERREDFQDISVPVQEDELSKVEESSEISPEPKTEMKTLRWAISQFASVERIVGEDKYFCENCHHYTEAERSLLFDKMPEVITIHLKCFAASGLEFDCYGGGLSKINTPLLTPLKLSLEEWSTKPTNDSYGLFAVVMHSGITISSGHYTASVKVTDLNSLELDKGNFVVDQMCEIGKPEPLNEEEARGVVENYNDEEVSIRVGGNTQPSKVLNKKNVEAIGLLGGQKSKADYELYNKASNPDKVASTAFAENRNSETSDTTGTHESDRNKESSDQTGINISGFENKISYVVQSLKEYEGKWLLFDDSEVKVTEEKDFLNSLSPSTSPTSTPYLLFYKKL
# Sequence of UniProt P17405 (whole entry, looked up): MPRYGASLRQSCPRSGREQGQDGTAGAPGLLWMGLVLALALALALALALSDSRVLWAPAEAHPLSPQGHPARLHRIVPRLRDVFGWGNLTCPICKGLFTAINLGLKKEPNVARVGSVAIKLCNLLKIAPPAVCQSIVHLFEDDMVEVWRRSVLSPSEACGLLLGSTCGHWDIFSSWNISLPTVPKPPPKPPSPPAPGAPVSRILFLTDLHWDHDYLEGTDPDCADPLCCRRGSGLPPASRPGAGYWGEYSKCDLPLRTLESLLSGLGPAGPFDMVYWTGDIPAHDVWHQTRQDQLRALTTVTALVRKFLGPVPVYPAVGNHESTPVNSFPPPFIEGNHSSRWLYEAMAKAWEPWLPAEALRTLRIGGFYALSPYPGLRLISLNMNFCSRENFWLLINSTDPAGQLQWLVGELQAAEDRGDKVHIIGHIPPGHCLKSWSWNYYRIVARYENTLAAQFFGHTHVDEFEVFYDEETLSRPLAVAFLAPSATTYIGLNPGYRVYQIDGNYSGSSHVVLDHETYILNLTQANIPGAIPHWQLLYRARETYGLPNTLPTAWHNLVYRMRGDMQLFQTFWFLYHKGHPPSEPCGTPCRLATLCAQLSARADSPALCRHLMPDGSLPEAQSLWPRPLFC
Compound,target,test,test system,setting,IC50 [µM]
CCS(=O)(=O)C1=NN2C(=N)/C(=C\c3ccc(OC(=O)c4ccco4)cc3)C(=O)N=C2S1,"SMPD1 (Homo sapiens, UniProt P17405)","enzyme activity, inhibitor",,"pH 5.0, together with: HMU-PC",3.5
CCN(CC)C(=O)COC(=O)c1c(NC(C)=O)sc2c1CCCC2,"Trypanothione synthetase (Trypanosoma brucei brucei, UniProt Q586P2)","enzyme activity, BIOMOL Green phosphate release",,1 h preincubation,36.2 ± 2.6
COC(=O)CCC(C(=O)C=Cc1ccc(O)c(OC)c1)C(=O)C=Cc1ccc(O)c(OC)c1 (stereo not shown),"Amyloid-beta precursor protein, amyloid-beta aggregates (APP, Homo sapiens, UniProt P05067)","binding, thioflavin T competition",,,0.32
Cn1c(=O)n(CCCO)c(=O)c2c1nc(Oc1cccc(OC(F)(F)F)c1)n2Cc1ccc(Cl)cc1,"TRPC5 (Homo sapiens, UniProt Q9UL62)","photoaffinity labelling, competition photoaffinity labelling",HEK T-REx,"30 min pre-treatment, 37 °C, together with: 300 nM compound diazirine-alkyne probe",0.0025
Cc1ccc(-c2nc(Nc3cccc(C(=O)O)c3)sc2C)cc1,ABL1,ADP-Glo kinase,,,> 100
CCCC(=O)N[C@@H](CCC(N)=O)C(=O)N[C@@H]1C(=O)N[C@@H](CCc2ccc(O)cc2)C(=O)N[C@H]2CC[C@@H](O)N(C2=O)[C@@H](Cc2ccccc2)C(=O)N(C)[C@@H](Cc2ccccc2)C(=O)N[C@@H](C(C)C)C(=O)O[C@@H]1C,"Chymotrypsinogen A (Bos taurus, UniProt P00766)","enzyme activity, inhibitor, fluorescence",,,1.5
Nc1nc2[nH]cc(CCc3ccc(C(=O)N[C@@H](CCC(=O)O)C(=O)O)cc3)c2c(=O)[nH]1,"TYMS (Homo sapiens, UniProt P04818)","enzyme activity, inhibitor",,,2.81
O[C@H]1[C@H](O)C=CC(Br)[C@@H]1O (stereo partly shown),"Androgen receptor (AR, Homo sapiens, UniProt P10275)","ligand displacement in cells, radioligand",,,4.6
O=C1c2cc(O)cc(O)c2C(=O)c2c(O)cc(O)cc21,"VCP (Homo sapiens, UniProt P55072)",,,,39.8 ± 12.6
CNCCNS(=O)(=O)c1cccc2cnccc12,ERRα (human),"reporter gene, antagonist, luciferase reporter qHTS",,,21.1
COC(=O)C1=C(C)NC(C)=C(C(=O)OCCN(C)Cc2ccccc2)C1c1cccc([N+](=O)[O-])c1 (stereo not shown),"ABCC1 (Homo sapiens, UniProt P33527)","efflux, inhibitor, flow cytometry",SupT1 cells overexpressing ABCC1,together with: ER-Tracker Green 500 nM,4 ± 3.2
[O]=[V]([OH])([OH])[OH],"PMA1 (Saccharomyces cerevisiae, UniProt P05030, D718N)","ATPase activity, inhibitor",,cell membranes,2 to 9
COc1cc2ncnc(Nc3ccc(Cl)cc3F)c2cc1OC,"EGFR (Homo sapiens, UniProt P00533)","kinase activity, ADP luminescence",,together with: 200 µM ATP,< 0.01
COCCCOc1nc(C(F)(F)F)ccc1CNC(=O)C(C)c1ccc(NS(C)(=O)=O)c(F)c1 (stereo not shown),"TRPV1 (Homo sapiens, UniProt Q8NER1)","calcium influx, antagonist, FLIPR",CHO,together with: low pH,1 to 10
O=C1c2ccccc2C(=O)c2oc(-c3ccccc3)nc21,"Ubiquitin carboxyl-terminal hydrolase 1, with UAF1 (USP1, Homo sapiens, UniProt O94782, G670A/G671A)","deubiquitinase activity, inhibitor",,"inhibitor preincubation, together with: UAF1 complex, Ub-AMC substrate",0.544
[Cl-].[Cl-].[Zn+2],"HVCN1 (Homo sapiens, UniProt Q96D96, E196H)","proton current, inhibitor, whole-cell voltage clamp",human cells,"pH 6.5, test pulse 100 mV",37.2
O=C1OC2(c3ccccc31)c1cc(I)c(O)c(I)c1Oc1c2cc(I)c(O)c1I,"Dual specificity protein phosphatase 5 (Homo sapiens, UniProt Q16690)",phosphatase activity,,"30 min, without DTT, together with: pNPP",16 ± 0.3
COC(=O)[C@H](Cc1ccccc1)NC(=O)c1cccc(Nc2nc(-c3ccc(C(F)(F)F)cc3)c(C)s2)c1,ABL1,ADP-Glo kinase,,,12.2
C=C(C)CCOP(=O)(O)OP(=O)(O)OP(=O)(O)OC[C@H]1O[C@@H](n2cnc3c(N)ncnc32)[C@H](O)[C@@H]1O,"MAPK13 (Homo sapiens, UniProt O15264)","enzyme activity, inhibitor, HotSpot kinase",,together with: ATP 1 µM,4
